Published values collected from several papers.
Each numbered part is a random draw from the data of one study; scales do not carry over between parts. Positions count from the first letter of the parent shown.

Study 1
Target: Transcriptional repressor CTCF (CTCF, Homo sapiens, UniProt P49711, residues 1-727, full length assumed)
Method: protein-binding microarray
Molecule type: double-stranded DNA, one strand shown
Sample: in vitro
Tested at: not given
Notes: k-mer, scored over probes, only values ≥0.25
Reading: higher = stronger binding
Target sequence (chain): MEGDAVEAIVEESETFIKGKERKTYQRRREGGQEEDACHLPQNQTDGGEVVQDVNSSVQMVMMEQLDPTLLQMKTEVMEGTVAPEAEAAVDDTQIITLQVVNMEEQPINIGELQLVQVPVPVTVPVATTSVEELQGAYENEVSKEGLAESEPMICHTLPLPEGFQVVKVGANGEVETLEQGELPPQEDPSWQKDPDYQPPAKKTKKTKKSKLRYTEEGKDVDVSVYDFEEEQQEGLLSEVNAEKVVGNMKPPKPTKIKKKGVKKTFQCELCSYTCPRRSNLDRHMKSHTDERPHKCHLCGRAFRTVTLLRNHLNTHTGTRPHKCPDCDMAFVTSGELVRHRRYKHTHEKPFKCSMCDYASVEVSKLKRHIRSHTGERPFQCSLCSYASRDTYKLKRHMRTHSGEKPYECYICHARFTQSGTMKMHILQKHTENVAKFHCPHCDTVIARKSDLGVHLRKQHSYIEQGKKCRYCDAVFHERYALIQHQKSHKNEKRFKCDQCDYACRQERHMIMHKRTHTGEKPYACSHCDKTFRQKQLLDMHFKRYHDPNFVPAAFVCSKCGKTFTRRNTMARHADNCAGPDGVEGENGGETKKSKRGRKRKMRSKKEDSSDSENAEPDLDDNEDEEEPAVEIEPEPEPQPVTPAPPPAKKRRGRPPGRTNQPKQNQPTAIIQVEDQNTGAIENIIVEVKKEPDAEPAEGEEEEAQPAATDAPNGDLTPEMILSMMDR
Oligonucleotide	E-score
CTTATTTC	0.267
CGCGGCGC	0.318
TACATTAA	0.257
ATATAAAC	0.41
GTGGCGTA	0.28
ATATACAT	0.299
ACATTACC	0.263
ATATTATG	0.333

Study 2
Target: vanadate, free oxyanion
Method: microfluidic competitive inhibition
Sample: in vitro, cell-free expressed
Tested at: not given
Notes: derived from inhibition constants, unchanged parent 676 nM
Reading: lower = stronger binding
Starting sequence: PafA, mature enzyme, eGFP fusion (Elizabethkingia meningoseptica, UniProt Q9KJX5); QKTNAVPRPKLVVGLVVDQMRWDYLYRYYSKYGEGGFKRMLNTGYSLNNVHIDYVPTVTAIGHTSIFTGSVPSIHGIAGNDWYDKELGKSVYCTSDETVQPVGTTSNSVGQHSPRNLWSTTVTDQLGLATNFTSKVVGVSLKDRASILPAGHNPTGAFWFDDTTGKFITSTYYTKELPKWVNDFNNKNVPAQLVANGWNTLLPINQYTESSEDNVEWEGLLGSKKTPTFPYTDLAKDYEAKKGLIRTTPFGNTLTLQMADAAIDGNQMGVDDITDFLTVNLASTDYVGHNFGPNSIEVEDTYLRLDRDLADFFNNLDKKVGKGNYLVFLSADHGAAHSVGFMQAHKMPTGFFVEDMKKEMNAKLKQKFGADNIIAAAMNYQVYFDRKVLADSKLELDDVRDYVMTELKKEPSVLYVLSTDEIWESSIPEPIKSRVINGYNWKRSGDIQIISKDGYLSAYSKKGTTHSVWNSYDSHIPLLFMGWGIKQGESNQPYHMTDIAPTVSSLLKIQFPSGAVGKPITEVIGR
Change	oxyanion analog dissociation constant
P7V	596 nM
G127V	692 nM
T255V	1.61 µM
P7G	577 nM
F158G	4.12 µM
G445A	417 nM
P428G	832 nM
L15G	6.29 µM
V468G	812 nM
V215G	538 nM
I61V	805 nM
V189A	698 nM
S146V	567 nM
S46V	585 nM
L326G	580 nM
K518V	652 nM
K358G	960 nM
Q448V	792 nM
D355V	605 nM

Study 3
Target: Prothrombin, mature alpha-thrombin (F2, Homo sapiens, UniProt P00734)
Method: aptamer microarray, sandwich
Molecule type: DNA with 2'F-ANA
Sample: in vitro
Tested at: 200 nM
Notes: whole 15-mer aptamer, many near background
With: Cy3 exosite-II aptamer, 400 nM
Reading: higher = stronger binding
Oligonucleotide: GGTTGGTGTGGTTGG
Modification	mean fluorescence intensity [a.u.]
2'F-ANA at 1 2 3 4 7 8 9 10 13 14 15	48
2'F-ANA at 2 3 5 6 7 8 10 12 14 15	55.7
2'F-ANA at 2 3 6 7 8 10 11 12 13 14	299
2'F-ANA at 1 2 3 6 7 10 13 15	63.2
2'F-ANA at 1 3 4 6 8 10 11 12 13 14	51.9
2'F-ANA at 2 3 4 5 6 9 10 15	52.4
2'F-ANA at 3 4 5 7 10 11 12 14 15	51.1
2'F-ANA at 3 4 6 8 9 13	425

Study 4
Target: CCNE2, cyclin fold, Cln2 fusion (human)
Method: yeast growth competition, sequencing
Sample: yeast
Notes: strong parent motif
Relative to: not given
Reading: higher = stronger binding
Starting sequence: viral docking peptide; TSVRRALFTGGSD; partner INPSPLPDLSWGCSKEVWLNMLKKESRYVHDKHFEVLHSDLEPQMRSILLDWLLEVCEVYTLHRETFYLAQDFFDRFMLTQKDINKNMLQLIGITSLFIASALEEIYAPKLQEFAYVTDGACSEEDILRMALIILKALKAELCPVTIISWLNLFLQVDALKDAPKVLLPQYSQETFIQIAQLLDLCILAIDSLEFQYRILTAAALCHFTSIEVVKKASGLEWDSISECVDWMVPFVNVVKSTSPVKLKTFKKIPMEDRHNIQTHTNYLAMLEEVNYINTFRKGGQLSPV
Change	normalised enrichment score
TSVRGALFTGGSD [R5G]	0.0892
TSVRRALFTGWSD [G11W]	2.89
TSVRAALFTGGSD [R5A]	0.33
TSVREALFTGGSD [R5E]	-0.275
TSVRRALFTGGKD [S12K]	2.84
TSVRRALFTRGSD [G10R]	2.58
TSVRRALFVGGSD [T9V]	3.88
TSVRRALFPGGSD [T9P]	2.65
TSVRRSLFTGGSD [A6S]	2.05
TSVRRALFTGVSD [G11V]	4.13
TSVRRALFTCGSD [G10C]	3.81
TSVRRAVFTGGSD [L7V]	0.509
TWVRRALFTGGSD [S2W]	1.02
TSVRRRLFTGGSD [A6R]	6.94
TSVRRALFTMGSD [G10M]	2.91
TSVRRALFRGGSD [T9R]	3.27
TSDRRALFTGGSD [V3D]	0.0597
TSVRRAGFTGGSD [L7G]	0.13
TSVRRALWTGGSD [F8W]	1.37
TSVRRALFTLGSD [G10L]	2.93
TSVRRALCTGGSD [F8C]	0.0527
TSVRRALFNGGSD [T9N]	2.7
TSQRRALFTGGSD [V3Q]	0.0713

For quick reference, copied from above (study 4):
Change	normalised enrichment score
TSVRRALFVGGSD [T9V]	3.88
TSVRRALFPGGSD [T9P]	2.65
TSVRRSLFTGGSD [A6S]	2.05
TSVRRALFTGVSD [G11V]	4.13
TSVRRALFTCGSD [G10C]	3.81
TSVRRAVFTGGSD [L7V]	0.509
TWVRRALFTGGSD [S2W]	1.02
